Measured values pooled from the literature.
Lines come from different studies, so protocols differ. Numbers after ± are the reported error. Values after ≈ are worked out from the molar mass of the structure shown.

SMILES	tested on	assay	test system	conditions	scale	measurement	value
CN1CCN(C2(CNC3CCN(c4cccc(-c5cc6cc(F)ccc6[nH]5)c4)CC3)CCC2)CC1	UACC-257					CC50	7.15 µM
CN1CCN(S(=O)(=O)c2cc([N+](=O)[O-])ccc2N(CCOS(C)(=O)=O)CCOS(C)(=O)=O)CC1			NSG mice, sample BH PDX	intraperitoneal, 25 mg/kg weekly x3	baseline: treated over vehicle	EFS ratio (T/C)	7.7
O=C1NC(=O)C(C2C3=C(CCCC3=O)Oc3ccc([N+](=O)[O-])cc32)C(=O)N1 (stereo not drawn)	3T3-L1 preadipocytes	adipogenesis, Oil Red O staining		IC20, 14 days		mean lipid content	0.536 OD492
[131I-].[Na+]		radioiodine ablation	human hyperthyroidism patients	185 MBq, 10 years, long-term follow-up		hypothyroid patients	35.7%
COc1ccc(-n2nc(C(C)=O)s/c2=N\N=C(/C)c2ccc(NC(C)=O)cc2)cc1	HepG2			10 µM		toxicity	93.9%
c1ccc(C(NCCNC(c2ccccc2)c2ccccc2)c2ccccc2)cc1	GABAA central, rat	binding		10 µM, Eurofins selectivity panel, with: muscimol		inhibition	3%
O=C(NNc1ccc(Cl)cc1)c1nnc(C23CC4CC(CC(C4)C2)C3)o1	Fusarium graminearum	fungal growth, inhibitor				EC50	0.86 ± 0.05 µg/mL (≈ 2.31 µM)
COc1cc(CCC[P+](c2ccccc2)(c2ccccc2)c2ccccc2)c(OC)c2c1OCO2.[I-]	UACC-257	SRB				TGI	-5.19 log M
CN1CC[C@]23c4c5ccc(O)c4O[C@H]2[C@@H](O)C=C[C@H]3[C@H]1C5		hot water tail withdrawal test	STZ-diabetic Sprague-Dawley rats	ip, 3 mg/kg		peak increase in tail withdrawal latency	3.3 ± 0.3 s
O=C(NNc1cc(F)ccc1F)c1nnc(C23CC4CC(CC(C4)C2)C3)o1	Fusarium graminearum	fungal growth, inhibitor		50 µg/mL		inhibition	100%
CC[C@H](C)[C@@H]1NC(=O)[C@@H]2CCCN2C(=O)[C@H](CC(C)C)NC(=O)[C@H](CC(C)C)NC(=O)CNC(=O)[C@@H](NC(=O)[C@@H](NC(=O)[C@H](CC(=O)O)NC(=O)CNC(=O)[C@@H](NC(=O)[C@H](C)NC(=O)CNC(=O)[C@H](CCCCN)NC(=O)[C@H](CC(C)C)NC(=O)[C@H](CC(C)C)NC(=O)[C@H](CCCCN)NC(=O)CNC(=O)[C@@H](NC(=O)[C@@H](N)CC(C)C)C(C)C)C(C)C)C(C)C)CSSC[C@@H](C(=O)O)NC1=O		RNA-seq, refers to: novel.213 mRNA	mouse traumatic brain injury, frontal cortex and hippocampus	dose not given	baseline: TBI plus compound vs TBI	log2 fold change	-2.08
C[C@H](C(=O)N[C@H]1COc2ccccc2[C@@H]1S(C)(=O)=O)c1ccc(F)cc1	SKCa potassium channel, rat	binding		10 µM, Eurofins selectivity panel		inhibition	3%
O=C(NNc1ccc(F)c(F)c1)c1nnc(C23CC4CC(CC(C4)C2)C3)o1	Fusarium graminearum	fungal growth, inhibitor				EC50	0.8 ± 0.17 µg/mL (≈ 2.14 µM)
COC(=O)[C@H]1[C@@H](OC(=O)c2ccccc2)C[C@@H]2CC[C@H]1N2C	sodium channel	Block, tonic and use-dependent	GH3	concentration not given		time to steady-state block	≤ 2 min
CCCCC1(CCCC)CN(c2ccccc2)c2cc(SC)c(OCC(=O)N[C@@H](C(=O)NCC(=O)O)c3ccccc3)cc2S(=O)(=O)C1		refers to: LDL cholesterol	human, serum	20 mg once daily, day 2		serum LDL-C	100 mg/dL
Nc1ncnc2c1ncn2[C@@H]1O[C@@H]2COP(=O)(O)O[C@H]3[C@@H](O)[C@H](n4cnc5c(=O)[nH]cnc54)O[C@@H]3COP(=O)(O)O[C@H]2[C@H]1O	West Nile virus	RNA sequencing, refers to: interferon alpha/beta signaling R-HSA-909733	HFF-1 cells	concentration not given, upregulated pathway	baseline: WNV-infected untreated cells	fold enrichment	14.4
CC(C)N1CCC(NC2CCN(c3cccc(-c4cc5cc(F)ccc5[nH]4)c3)CC2)CC1	M14					GI50	1.75 µM
CC(=O)c1c(C)c2cnc(Nc3ccc(C4CCN(CCS(C)(=O)=O)CC4)cn3)nc2n(C2CCCC2)c1=O		RECIST v1.1	HR+/HER2- advanced breast cancer patients	100 mg twice daily, phase Ib monotherapy arm		best response partial response	6.7%
CC[C@H](C)[C@H](NC(=O)[C@H](C)NC(=O)[C@H](CCCCN)NC(=O)[C@H](CC(C)C)NC(=O)[C@H](C)NC(=O)[C@@H](NC(=O)[C@H](Cc1c[nH]cn1)NC(=O)[C@H](CC(C)C)NC(=O)[C@@H](NC(=O)[C@@H](NC(=O)[C@H](CCCCN)NC(=O)[C@H](C)NC(=O)[C@H](C)NC(=O)[C@H](CO)NC(=O)[C@H](CCCCN)NC(=O)[C@H](Cc1ccccc1)NC(=O)[C@@H](NC(=O)[C@H](CCCCN)NC(=O)[C@H](CC(C)C)NC(=O)[C@H](Cc1ccccc1)NC(=O)[C@H](CO)NC(=O)[C@H](CCCCN)NC(=O)[C@H](Cc1c[nH]c2ccccc12)NC(=O)[C@H](CCCCN)NC(C)=O)[C@@H](C)O)[C@@H](C)O)C(C)C)[C@@H](C)O)C(=O)N[C@@H](CO)C(=O)N[C@@H](CO)C(N)=O	Enterobacter cloacae			40 strains		MBC50	8 µg/mL (≈ 2.73 µM)
CS(=O)(=O)CCCn1c(Cn2c(=O)n(CC(F)(F)F)c3ccncc32)cc2cc(Cl)ccc21	respiratory syncytial virus	RT-qPCR	hospitalized infants 1-24 months, nasal swab	oral, 1-9 mg/kg daily, day 7, all doses combined	baseline: baseline	LS mean viral load change	-4.02 log10 copies/mL
COc1c(CCC[P+](c2ccccc2)(c2ccccc2)c2ccccc2)cc2c(c1OC)OCO2.[I-]	HOP-92	SRB				GI50	-6.3 log M

A few entries again:
SMILES	tested on	assay	test system	conditions	scale	measurement	value
CC(C)N1CCC(NC2CCN(c3cccc(-c4cc5cc(F)ccc5[nH]4)c3)CC2)CC1	M14					GI50	1.75 µM
CC(=O)c1c(C)c2cnc(Nc3ccc(C4CCN(CCS(C)(=O)=O)CC4)cn3)nc2n(C2CCCC2)c1=O		RECIST v1.1	HR+/HER2- advanced breast cancer patients	100 mg twice daily, phase Ib monotherapy arm		best response partial response	6.7%
